Experimental data from different studies.
Compare with care: the assays were run in different laboratories. Several values in a cell are separate wells, animals, samples, runs or records. ± marks the error that the study gave. Values after ≈ are worked out from the molar mass of the structure shown.

`CCOC(=O)C1(CC=C(C)C)Oc2cc(F)ccc2N(CC=C(C)C)C1=O` (stereo not drawn) has an inhibition of 31.7% (Arabidopsis thaliana; root length, petri dish germination; Col-0, 1/2 MS medium; 50 µg/mL, 7 days, 22 °C, dark).
With `COc1ccc(-c2[nH]c3ccccc3c2C[C@H]2NC(=O)[C@@H](CO)NC(=O)[C@@H](C(C)C)NC(=O)[C@H](Cc3ccccc3)NC(=O)[C@@H](C(C)C)NC(=O)[C@@H](C)NC(=O)[C@H](CO)NC2=O)c(OC)c1` the MIC90 was over 50 µM (Candida albicans; broth dilution).
For `Cc1cc(Cl)cc(S(C)=NC#N)c1NC(=O)c1cc(Br)nn1-c1ncccc1Cl` (stereo not drawn), the mortality was 43.3% (Spodoptera litura; leaf-dip; third instar larvae; 6.25 ppm, 48 h).
With `Fc1cccc(COc2ccc(Nc3ncnc4ccc(-c5cccc(N6CCSCC6)c5)cc34)cc2Cl)c1` the EC50 was 440 nM (Plasmodium falciparum; parasite growth, SYBR Green; D6; blood stage).
With `CCCCCCCCCC(=O)NCCCC[C@H](NC(=O)CCCCCCCCC)C(=O)N[C@@H](CCCCNC(=O)CCCCCCCCC)C(=O)NCC(=O)NCC(=O)NCC(=O)N[C@@H](CS)C(=O)N[C@@H](CCCNC(=N)N)C(=O)N[C@@H](CCCCN)C(=O)N1CCC[C@H]1C(=O)N[C@@H](CS)C(=O)N[C@@H](CCCNC(=N)N)C(=O)N[C@@H](CCCCN)C(=O)N1CCC[C@H]1C(N)=O` the MIC was 64 µM (≈ 120 µg/mL) (Candida albicans; broth microdilution; SP 3931, RPMI-1640; 48 h, 30 °C).
The herbicidal inhibition of `NCCCO.O=C(O)C(Cl)Cl` is reported as 0% (Xanthium sibiricum; 15 mg/mL, 21 days, pre-emergence, greenhouse).
With `O=S(=O)(c1ccc(-c2ccc3ncnc(Nc4ccccc4)c3c2)cc1)N1CCOCC1` the EC50 was over 4000 nM (Plasmodium falciparum; parasite growth, SYBR Green fluorescence; W2, drug-resistant).
With `C[C@H](NC(=O)[C@@H](O)c1cc(F)cc(F)c1)C(=O)N[C@@H]1C(=O)N(C)c2ccccc2-c2ccccc21` the inhibition was -10.5% (dengue virus 2; viral infection, luciferase reporter virus; 0.3 nM, 48 h).
`CS(=O)(=O)c1ccc(-c2ccc3ncnc(Nc4ccc(OCc5cccc(F)c5)c(Cl)c4)c3c2)cc1` gave an EC50 of 200 nM (Plasmodium falciparum; parasite growth, SYBR Green fluorescence; C235 (TM91C235), drug-resistant).
For `CCCCCC(=O)NCCCC[C@H](NC(=O)CCCCC)C(=O)N[C@@H](CCCCNC(=O)CCCCC)C(=O)NCC(=O)NCC(=O)NCC(=O)N[C@@H](CS)C(=O)N[C@@H](CCCNC(=N)N)C(=O)N[C@@H](CCCCN)C(=O)N1CCC[C@H]1C(=O)N[C@@H](CS)C(=O)N[C@@H](CCCNC(=N)N)C(=O)N[C@@H](CCCCN)C(=O)N1CCC[C@H]1C(N)=O`, the MIC was 16 µM (≈ 27.3 µg/mL) (Candida albicans; broth microdilution; 17546, RPMI-1640; 48 h, 30 °C).
The IC50 of `CCCCCC[C@H]1C(=O)O[C@H](C)[C@H](NC(=O)c2cccc(NC=O)c2O)C(=O)O[C@@H](C)[C@@H]1OC(=O)CC(C)C` is reported as about 46 nM (Bovine alphaherpesvirus 1; viral replication; MDBK).
For `[O-][N+]1=C(c2ccccc2)C2=NCCN2c2ccccc21`, the MIC90 was 0.125 µg/mL (Fusobacterium nucleatum).
`CCc1nn(C)c2nc(-c3ccc(C(=O)O)cc3)nc(NCc3ccccc3)c12` has a parasite number of 37.6% and 32.5% and 30.5% and 29.8% (Cryptosporidium parvum; HCT-8; 12 x EC90, 24 h; reference: DMSO control).
`[2H]C([2H])(c1cc(F)c(F)cc1F)n1c(=O)n(Cc2ncn(C)n2)c(=O)[nH]/c1=N\c1cc2cn(C)nc2cc1Cl` has an IC50 of 47700 nM (transmissible gastroenteritis virus; viral replication, qRT-PCR; ST; 48 h).
`CN(C)c1nc(NCc2cccc(-c3ccccc3)c2)c(/N=N/c2ccc(Cl)cc2)c(N(C)C)n1` gave a mortality of 90 ± 6.7% (Plutella xylostella; leaf dipping; 200 mg/L, 96 h).
For `CCOC(=O)C1(Cc2cccc(C(C)C)c2)Oc2cc(F)ccc2N(Cc2cccc(C(C)C)c2)C1=O` (stereo not drawn), the inhibition was 17.8% (Arabidopsis thaliana; stem length, petri dish germination; Col-0, 1/2 MS medium; 50 µg/mL, 7 days, 22 °C, dark).
With `COc1ccc(Nc2ncnc3ccc(-c4ccc(S(=O)(=O)N5CCOCC5)cc4)cc23)cc1Cl` the EC50 was 1200 nM (Plasmodium falciparum; parasite growth, SYBR Green fluorescence; C235 (TM91C235), drug-resistant).
`CCOC(=O)C1(Cc2ccc([N+](=O)[O-])cc2)Oc2cc(F)ccc2N(Cc2ccc([N+](=O)[O-])cc2)C1=O` (stereo not drawn) has an inhibition of 35.1% (Arabidopsis thaliana; stem length, petri dish germination; Col-0, 1/2 MS medium; 50 µg/mL, 7 days, 22 °C, dark).
`COc1ccc(Cn2c3cc(=O)n(Cc4cccc(Cl)n4)c(C)c3c(=O)n2-c2ccccn2)cc1` — result for “normalized viral replication”: 0 (human respiratory syncytial virus; recombinant reporter virus; concentration not given, scale 0 to 100, together with: cytidine 300 µM).
For `[O-][N+]1=C(c2ccc(Cl)cc2)C2=NCCCN2c2ccccc21`, the MIC50 was 0.25 µg/mL (≈ 0.802 µM) (Fusobacterium nucleatum; microbial growth).
For `CC(=O)c1c(O)c(C)c(O)c2c1OC1=CC(=O)C(=C(C)NCCCC(=O)OC3OC4OC5(C)CCC6C(C)CCC(C3C)C46OO5)C(=O)C12C` (stereo not drawn), the parasitaemia inhibition was 99.8% (Plasmodium berghei; ANKA GFP, NMRI mouse; oral, 4 x 10 mg/kg, day 4 post infection).
The EC50 of `COc1ccc(Nc2ncnc3ccc(-c4ccc(S(=O)(=O)N5CCN(C)CC5)cc4)cc23)cc1Cl` is reported as 210 nM (Plasmodium falciparum; parasite growth, SYBR Green fluorescence; W2, drug-resistant).
For `CCOC(=O)C1(Cc2ccccc2)Oc2cc(F)ccc2N(Cc2ccccc2)C1=O` (stereo not drawn), “root length inhibition” read 56.9% (Arabidopsis thaliana; Col-0, seed germination, dark; 50 µg/mL, 7 days, 22 °C).
The parasitaemia inhibition of `CC(=O)c1c(O)c(C)c(O)c2c1OC1=CC(=O)C(=C(C)NCCCCOC3OC4OC5(C)CCC6C(C)CCC(C3C)C46OO5)C(=O)C12C` (mixture of isomers) is reported as 99.8% (Plasmodium berghei; ANKA GFP, NMRI mouse; oral, 4 x 100 mg/kg, day 4 post infection).
The EC50 of `O=C(c1cccc(-c2ccc3ncnc(Nc4ccc(OCc5cccc(F)c5)c(Cl)c4)c3c2)c1)N1CCCCC1` is reported as 840 nM (Plasmodium falciparum; parasite growth, SYBR Green fluorescence; W2, drug-resistant).
`CCOC(=O)C1(Cc2ccc(-c3ccccc3)cc2)Oc2cc(F)ccc2N(Cc2ccc(-c3ccccc3)cc2)C1=O` (stereo not drawn) has an inhibition of 45% (Arabidopsis thaliana; stem length, petri dish germination; Col-0, 1/2 MS medium; 200 µg/mL, 7 days, 22 °C, dark).
`C[C@H]1[C@@H](OCc2cn(-c3cc4ccc(O)cc4oc3=O)nn2)O[C@@H]2O[C@@]3(C)CC[C@H]4[C@H](C)CC[C@@H]1[C@@]24OO3` gave a cure rate of 100% (Plasmodium berghei; NK65/GFP, mouse; subcutaneous, 22 µmol/kg daily for four days).
The MIC90 of `[O-][N+]1=C(c2ccsc2)C2=NCCCN2c2ccccc21` is reported as 0.5 µg/mL (Fusobacterium nucleatum).
The inhibition of `CCOC(=O)C1(CC)Oc2cc(F)ccc2N(CC)C1=O` (stereo not drawn) is reported as 100% (Arabidopsis thaliana; stem length, petri dish germination; Col-0, 1/2 MS medium; 200 µg/mL, 7 days, 22 °C, dark).
The biofilm inhibition of `CC(C)C[C@H](NC(=O)[C@H](CC(C)C)NC(=O)[C@H](CCCCN)NC(=O)[C@H](Cc1ccccc1)NC(=O)[C@@H](NC(=O)[C@H](CCCNC(=N)N)NC(=O)[C@@H](N)CCCCN)C(C)C)C(=O)N[C@@H](CCCCN)C(=O)N[C@@H](CCCNC(=N)N)C(=O)N[C@@H](Cc1ccc(O)cc1)C(=O)N[C@@H](Cc1c[nH]c2ccccc12)C(=O)N[C@@H](CCCNC(=N)N)C(=O)N[C@@H](CCC(N)=O)C(=O)N[C@@H](CC(C)C)C(=O)N[C@@H](CCCCN)C(=O)N[C@@H](CCCCN)C(=O)N1CCC[C@H]1C(=O)N[C@H](C(=O)N[C@@H](CCCNC(=N)N)C(=O)NCCOCCOCC(=O)O)C(C)C` is reported as over 80% (Pseudomonas aeruginosa and Staphylococcus aureus; crystal violet; 16 µM, 24 h, polymicrobial biofilm).
With `COc1cccc(COc2ccc(Nc3ncnc4ccc(-c5ccc(S(=O)(=O)N6CCOCC6)cc5)cc34)cc2Cl)c1` the EC50 was 230 nM (Plasmodium falciparum; parasite growth, SYBR Green; D6; blood stage).
With `O=NC1=C(c2cccc([N+](=O)[O-])c2)Nc2ccccc2S1` the IC50 was 93600 nM (HIV-1 subtype C; viral replication; 96 h).
The inhibition of `CCOC(=O)C1(Cc2cccc(C)c2)Oc2cc(F)ccc2N(Cc2cccc(C)c2)C1=O` (stereo not drawn) is reported as 52% (Arabidopsis thaliana; root length, petri dish germination; Col-0, 1/2 MS medium; 50 µg/mL, 7 days, 22 °C, dark).
The survival of `Cc1cc(C(=O)Nc2nc3cccc(C)c3n2[C@H]2CCCCN(C(=O)/C=C/CN(C)C)C2)ccn1` is reported as 66.8% and 63.9% and 56% and 62.2% (Trypanosoma brucei brucei; 2T1 CLK1 overexpressing; 0.1563 µM, DMSO pretreated; reference: maximum).
`CN(C(=O)c1ccn2ncc(-c3ccc(C(N)=O)cc3)c2c1)c1ccc(C#N)cn1` — result for “faecal Nluc luminescence”: 6120 a.u. and 151 a.u. and 7190 a.u. and 4380 a.u. (Cryptosporidium parvum; UGA1 Nluc, IFN-gamma knockout C57BL/6 mice, faeces; oral, 10 mg/kg daily, 120 h post infection, treatment days 11-17; higher means more parasites).
`CC[C@H](C)CCCCC(=O)N[C@@H](CCN)C(=O)N[C@H](C(=O)N[C@@H](CCN)C(=O)N[C@H]1CCNC(=O)[C@H]([C@@H](C)O)NC(=O)[C@H](CCN)NC(=O)[C@H](CCN)NC(=O)[C@H](CC(C)C)NC(=O)[C@@H](CC(C)C)NC(=O)[C@H](CCN)NC1=O)[C@@H](C)O`: “MIC fold change” 1.26 (Escherichia coli; daily serial passaging; ATCC 8739; highest sub-MIC, 23 days; reference: initial MIC).
Under “mRNA fold change”, `FC(F)(F)c1cccc(CNc2nc(NC3CCN(Cc4ccccc4)CC3)c3nc[nH]c3n2)c1` is recorded as 1.49 (Cryptococcus neoformans; RNA-seq, measured: PLC1 (CNAG_02867); 48 µg/mL, 3 h; reference: untreated).
`O=S(=O)(c1cccc(-c2ccc3ncnc(Nc4ccc(OCc5cccc(F)c5)c(Cl)c4)c3c2)c1)N1CCCC1` gave an EC50 of 190 nM (Plasmodium falciparum; parasite growth, SYBR Green; D6; blood stage).
With `CCOC(=O)C1(Cc2ccccc2C#N)Oc2cc(F)ccc2N(Cc2ccccc2C#N)C1=O` (stereo not drawn) the inhibition was 45.5% (Arabidopsis thaliana; stem length, petri dish germination; Col-0, 1/2 MS medium; 200 µg/mL, 7 days, 22 °C, dark).

Excerpt of the above:
With `COc1ccc(-c2[nH]c3ccccc3c2C[C@H]2NC(=O)[C@@H](CO)NC(=O)[C@@H](C(C)C)NC(=O)[C@H](Cc3ccccc3)NC(=O)[C@@H](C(C)C)NC(=O)[C@@H](C)NC(=O)[C@H](CO)NC2=O)c(OC)c1` the MIC90 was over 50 µM (Candida albicans; broth dilution).
For `Cc1cc(Cl)cc(S(C)=NC#N)c1NC(=O)c1cc(Br)nn1-c1ncccc1Cl` (stereo not drawn), the mortality was 43.3% (Spodoptera litura; leaf-dip; third instar larvae; 6.25 ppm, 48 h).
With `Fc1cccc(COc2ccc(Nc3ncnc4ccc(-c5cccc(N6CCSCC6)c5)cc34)cc2Cl)c1` the EC50 was 440 nM (Plasmodium falciparum; parasite growth, SYBR Green; D6; blood stage).
With `CCCCCCCCCC(=O)NCCCC[C@H](NC(=O)CCCCCCCCC)C(=O)N[C@@H](CCCCNC(=O)CCCCCCCCC)C(=O)NCC(=O)NCC(=O)NCC(=O)N[C@@H](CS)C(=O)N[C@@H](CCCNC(=N)N)C(=O)N[C@@H](CCCCN)C(=O)N1CCC[C@H]1C(=O)N[C@@H](CS)C(=O)N[C@@H](CCCNC(=N)N)C(=O)N[C@@H](CCCCN)C(=O)N1CCC[C@H]1C(N)=O` the MIC was 64 µM (≈ 120 µg/mL) (Candida albicans; broth microdilution; SP 3931, RPMI-1640; 48 h, 30 °C).
The herbicidal inhibition of `NCCCO.O=C(O)C(Cl)Cl` is reported as 0% (Xanthium sibiricum; 15 mg/mL, 21 days, pre-emergence, greenhouse).
